Results collected from several papers.
Numbered parts are unrelated; each lists some results of a single study.

Series 1
Target: Centromere-binding protein 1, full length, His-tagged (CBF1, Saccharomyces cerevisiae, UniProt P17106, residues 1-351)
UniProt P17106, sequence (whole entry, looked up): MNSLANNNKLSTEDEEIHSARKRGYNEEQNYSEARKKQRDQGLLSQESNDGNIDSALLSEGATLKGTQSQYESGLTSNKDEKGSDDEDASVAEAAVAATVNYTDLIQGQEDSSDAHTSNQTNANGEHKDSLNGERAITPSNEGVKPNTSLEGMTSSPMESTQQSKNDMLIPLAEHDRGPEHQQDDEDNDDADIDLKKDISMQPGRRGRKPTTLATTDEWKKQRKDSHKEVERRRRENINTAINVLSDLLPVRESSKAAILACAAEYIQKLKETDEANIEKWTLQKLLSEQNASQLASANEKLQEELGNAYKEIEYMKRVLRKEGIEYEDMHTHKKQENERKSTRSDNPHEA
Technique: competition protein-binding microarray
Molecule type: double-stranded DNA, one strand shown
Medium: in vitro
Concentration: 2 µM
Notes: whole 60-bp probe, lowest competitor level
Together with: Pho4 competitor, 0.05 µM
Direction: higher = stronger binding
With `ACAAATCAAGAATCGCACGTGAAAATATCAAGCGCGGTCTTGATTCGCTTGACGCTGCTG` the fluorescence intensity was 884 a.u.
For `TAACCCCCTCCTACCCACGCTATTCTTCAAATTCCGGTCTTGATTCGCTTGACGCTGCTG`, the fluorescence intensity was 76 a.u.
The fluorescence intensity of `TTCCAGGACATTCACCATGTGCTTTTTTCCATAACAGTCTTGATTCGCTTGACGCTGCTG` is reported as 137 a.u.
`TTTCTGAGCGCCTACCACGTGGAGAGAGCTAAGTGCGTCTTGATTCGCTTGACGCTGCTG` has a fluorescence intensity of 667 a.u.
For `TATATATGCATTCACCACGTTCCCGTTAGTCAAACGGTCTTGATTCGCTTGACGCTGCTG`, the fluorescence intensity was 103 a.u.
For `GGTACTCGCTGTTTGCACGTGGCAAAGACCCCATTTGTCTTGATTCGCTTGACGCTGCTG`, the fluorescence intensity was 1200 a.u.
The fluorescence intensity of `AATCATTTAGTCCATCACGTCAACCTGTCTAAAATAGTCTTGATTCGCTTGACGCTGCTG` is reported as 102 a.u.
The fluorescence intensity of `CTTCTGTAAATTTGTCACCAGACTTGACGCGCCCCGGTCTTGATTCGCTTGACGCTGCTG` is reported as 90.4 a.u.
With `GTCTTCTTGAATCCACACGTGAATACTACCTTTTTTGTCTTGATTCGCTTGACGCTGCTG` the fluorescence intensity was 651 a.u.
`TGGCTTTGCTAACGACATGCGTGAAGAAAAGCGGTAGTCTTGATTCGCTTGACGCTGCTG` gave a fluorescence intensity of 73 a.u.
`AAAAAAAAAACGAGTCACGTGCAAACAGTACCCCTTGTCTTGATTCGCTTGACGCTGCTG` has a fluorescence intensity of 13800 a.u.
The fluorescence intensity of `AAAGAACTCCCTTCGCATGTGATGAAGGTTATAGGTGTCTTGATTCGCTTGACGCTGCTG` is reported as 267 a.u.
With `CTTTTGCATCCGAGCCTCCTGGATAATAACTTCAATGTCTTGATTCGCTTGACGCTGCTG` the fluorescence intensity was 72.9 a.u.
`CGGCGGCAAGGTTGTGTCGTGATGGTCGTTGCATAGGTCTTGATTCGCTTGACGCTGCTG` has a fluorescence intensity of 66.4 a.u.
For `CTAACGAAGGTTTGGTACGTGGGTGACAAGCCAAGTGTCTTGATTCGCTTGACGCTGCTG`, the fluorescence intensity was 60 a.u.
With `GATTGGTTAAAATTGATCATGACAGACGTCTCATCCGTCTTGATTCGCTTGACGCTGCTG` the fluorescence intensity was 76.2 a.u.
`TGCGCAACAACTTGGATAGTGGGTGTATGTCTAGAAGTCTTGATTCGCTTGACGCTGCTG` has a fluorescence intensity of 66.3 a.u.
For `AAAGCGGTAATTTGCCTGGTGGGTGCAGATATCTATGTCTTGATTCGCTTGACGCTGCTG`, the fluorescence intensity was 67.4 a.u.
With `AAAGCGGTAATTTGGGCCGTGGGTGCAGATATCTATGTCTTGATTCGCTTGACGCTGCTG` the fluorescence intensity was 83.1 a.u.
For `ATTCCTTTCCTGTAACTCGTGCTTTGAGAAAAGTACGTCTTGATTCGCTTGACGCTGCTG`, the fluorescence intensity was 146 a.u.
`AAGGGCAAAAAAGCTCACATGACAAGCTTGTTTTGGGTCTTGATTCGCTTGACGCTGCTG` gave a fluorescence intensity of 618 a.u.
`AAAGCGGTAATTTGGTGTGTGGGTGCAGATATCTATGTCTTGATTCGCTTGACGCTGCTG` gave a fluorescence intensity of 89.7 a.u.

Series 2
Target: Transcription factor SOX-2, HMG box (Sox2, Mus musculus, UniProt P48432, residues 41-119)
UniProt P48432, sequence (41-119, looked up): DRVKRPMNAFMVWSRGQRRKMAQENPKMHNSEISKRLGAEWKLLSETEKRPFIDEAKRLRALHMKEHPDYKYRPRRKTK
Technique: Spec-seq
Molecule type: double-stranded DNA, one strand shown
Medium: in vitro
Concentration: not given
Notes: whole probe, mean of replicates
Relative to: not given
Direction: lower = stronger binding
All sequences stand within: GAGTCGTCTCGTCAGCAC … CCGTAGAGCACTCAGGTC
`GTCAGTT` — result for “relative binding energy”: 0.611 ln ratio.
For `CAGAGTT`, “relative binding energy” read 0.944 ln ratio.
Under “relative binding energy”, `ATTGGTT` is recorded as -0.271 ln ratio.
`TCTAGTT` — result for “relative binding energy”: 0.316 ln ratio.
`CATCGTG`: “relative binding energy” 0.49 ln ratio.
`TTGCGTT`: “relative binding energy” 1.14 ln ratio.
`CACAGTT`: “relative binding energy” 0.0214 ln ratio.
Under “relative binding energy”, `CATTCCA` is recorded as 0.317 ln ratio.
`CATTGGG` — result for “relative binding energy”: -0.228 ln ratio.
`CATCTGT`: “relative binding energy” 0.315 ln ratio.
`CATCCGG` — result for “relative binding energy”: 0.863 ln ratio.
`CATCAGA`: “relative binding energy” 0.429 ln ratio.
For `GCAAGTT`, “relative binding energy” read 1.09 ln ratio.
For `CATCCGC`, “relative binding energy” read 1.01 ln ratio.
`CATGGAA` — result for “relative binding energy”: -0.24 ln ratio.
Under “relative binding energy”, `GACAGTT` is recorded as 0.553 ln ratio.
Under “relative binding energy”, `CACTGTT` is recorded as -0.824 ln ratio.
`CTTGGTT` — result for “relative binding energy”: 0.506 ln ratio.
Under “relative binding energy”, `CATGATG` is recorded as 0.0882 ln ratio.
`CATCTCG`: “relative binding energy” 0.814 ln ratio.
`GCCCGTT`: “relative binding energy” 0.956 ln ratio.
For `CATATAG`, “relative binding energy” read -0.432 ln ratio.

Series 3
Target: RING finger protein unkempt homolog, zinc fingers 1-6, GST-SBP tag (UNK, Homo sapiens, UniProt Q9C0B0, residues 30-357)
UniProt Q9C0B0, sequence (30-357, looked up): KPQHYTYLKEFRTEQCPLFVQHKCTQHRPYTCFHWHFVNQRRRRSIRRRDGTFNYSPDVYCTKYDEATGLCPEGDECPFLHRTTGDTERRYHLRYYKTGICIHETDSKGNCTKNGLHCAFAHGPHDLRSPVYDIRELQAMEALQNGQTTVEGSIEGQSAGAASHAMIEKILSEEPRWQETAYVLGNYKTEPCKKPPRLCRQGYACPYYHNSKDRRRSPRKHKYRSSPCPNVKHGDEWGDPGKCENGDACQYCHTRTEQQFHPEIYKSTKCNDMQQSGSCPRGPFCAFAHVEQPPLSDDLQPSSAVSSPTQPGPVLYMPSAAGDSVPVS
Technique: RNA Bind-n-Seq
Molecule type: RNA
Medium: in vitro
Concentration: not given
Notes: RNA with constant flanks, human and mouse sites, ends assumed
Relative to: input RNA pool
Direction: higher = stronger binding
`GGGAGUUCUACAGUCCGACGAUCCCAAAGCUGGCAGCACUUCUCCGUGUGUUCAGUACUGUGGUGAGGAGCAUUGGGGAACGCUUUAGCCCAAUUCGGGGUCCACCAAUUACAGAGGCAUACGUAACAGAUGUUCUAUACAGACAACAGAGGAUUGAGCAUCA` gave a bound/input enrichment of 0.116 ratio.
`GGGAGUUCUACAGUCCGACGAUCGAGAUUGACUGCACCAUGCUCACCCCUGAGCCAGUUUUAAAGACCUCUGGCCACGUAGACAAAUUUGCUGACUUCAUGGUGAAGGACGUGAAGAACGGAGAGUGCUUCCGAGCAGACCACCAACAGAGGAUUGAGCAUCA` has a bound/input enrichment of 0.219 ratio.
The bound/input enrichment of `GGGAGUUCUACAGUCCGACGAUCAAUCAGGCAAAGAAAGGUAGUGCAAGUUGUGGGACCAGUUUUCGAGGAACAGUUGGACGGACUAGAGAUUACACUGUUUUACAUCCAUCUUGCUUGUCAGUGUGUAAUGUUACCAUCCAGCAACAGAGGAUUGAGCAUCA` is reported as 0.192 ratio.
`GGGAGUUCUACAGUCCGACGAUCGAGAAGACUGGCCACAGUGGCACACUAGAUCCCAAAGUGACUGGUUGUUUAAUUGUGUGCAUUGAACGAGCCACUCGUUUGGUGAAAUCACAACAGAGUGCAGGCAAAGAGUAUGUUGGACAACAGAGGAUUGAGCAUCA` has a bound/input enrichment of 0.302 ratio.
`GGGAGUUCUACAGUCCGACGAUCUUCCCUCGGUUCCAGUCUUCCCUUUAAAAGCCUGUGGCAUUUUUCCUCCUUCUCCCUAACUUUAGAAAUGUUGUACUUGGCUAUUUUGAUUAGGGAAGAGGGAUGUGGUCUCUGAUCUCUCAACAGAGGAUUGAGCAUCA` has a bound/input enrichment of 0.26 ratio.
For `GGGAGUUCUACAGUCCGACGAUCGAGUUCCAUCUUUUCUCUAGGAAGGUAGAAGAGAUUUUGAAGGAGAAGAAUGUUUCAUAUGUUAGUGCAAUUUCCACACCUAUCUUUUCAGCACAAGAGAAGAUGAAUCGCCUUUCUGAGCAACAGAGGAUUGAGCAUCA`, the bound/input enrichment was 0.144 ratio.
With `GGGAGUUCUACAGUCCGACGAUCGGAGCUGAUGCUGAUCUAAUUAUGCUUGGUCUUGCUACACAUGAACCUAACUUCACCAUAAUCAGAGAAGAAUUCAAACCAAAUAAACCUAAACCAUGUGCUCUUUGUAAUCAGUUUGGACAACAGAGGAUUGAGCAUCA` the bound/input enrichment was 0.25 ratio.
`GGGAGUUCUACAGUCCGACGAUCAAAAUUCUUUACCCCAAAACACUGUUUUUACUUCGCGGAAACCAUGAAUGUAGGCACCUCACAGAGUAUUUCACGUUUAAACAAGAAUGUAAAAUAAAGUAUUCAGAACGCGUUUAUGACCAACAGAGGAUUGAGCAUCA` gave a bound/input enrichment of 0.321 ratio.
For `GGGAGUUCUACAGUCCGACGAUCUCUUGGUCUCCAAAUCCUACACCUUACUUUGAAACACCACUGGCUCCCUUUCCCAAUGGUAGUUUUGUGAAUGGCUUUAAUUCGCCAGGAUCUUAUAAAACAAAUGCUGCUGCUAUGAAUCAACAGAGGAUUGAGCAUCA`, the bound/input enrichment was 0.802 ratio.
`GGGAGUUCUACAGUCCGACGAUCUCUUUAUAGAAUGAGAACCUUUUUUGGACUAGCUUUUUUAUUAAAAUGGCUCAAUUUGUGUUGAUAAGGAUUGCAUUAAUAUUUAAUAGUGCUUGCUUUUCCUCUGGGCACACCAUUUUGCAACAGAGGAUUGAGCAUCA` has a bound/input enrichment of 11.2 ratio.
The bound/input enrichment of `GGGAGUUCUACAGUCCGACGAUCUUUUUUUUAAAUUUUUUUAUUUUCUUUUUGUUUGUUUCGUUUUGGGGAGGGGUAAAAGUUCUUAGCACAAGUGUUUUACAUAAUUUGUACCAAAAAAAUUACACACAAAAAAAAAAAAAGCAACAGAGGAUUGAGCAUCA` is reported as 1.2 ratio.

Series 4
Target: Histone acetyltransferase KAT6A, winged helix 2, GST fusion (KAT6A, Homo sapiens, UniProt Q92794, residues 85-181)
Technique: protein binding microarray
Molecule type: double-stranded DNA, one strand shown
Medium: in vitro
Concentration: not given
Notes: 8-mer, flanks averaged, mean of 2 arrays, mostly near background
Relative to: not given
Direction: higher = stronger binding
Target sequence (chain): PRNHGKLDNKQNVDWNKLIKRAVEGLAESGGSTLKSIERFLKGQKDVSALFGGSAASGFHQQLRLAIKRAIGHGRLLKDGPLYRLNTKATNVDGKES
`CAGAGCCC` has an E-score of 0.145.
`AAGACTCG` gave an E-score of -0.0711.
The E-score of `AACGCCGT` is reported as 0.105.
`CACAAATG` has an E-score of -0.104.
`AGTCTGAG` has an E-score of -0.0541.
For `AGACCTCC`, the E-score was -0.0545.
For `ACAGCTGC`, the E-score was -0.201.
`CTGGTTAA` has an E-score of -0.041.
The E-score of `ATTTATCG` is reported as 0.00754.
`GAGCAGAA` gave an E-score of 0.0948.
For `CTAGGTGA`, the E-score was -0.217.
`CGGCTATC` has an E-score of -0.0187.
The E-score of `TCTGGAAA` is reported as -0.0356.
The E-score of `AACCCGGA` is reported as 0.0366.
The E-score of `CCTACTCG` is reported as 0.0152.
`AGCCAGGC` gave an E-score of 0.189.
`CCATCTCA` has an E-score of -0.0926.
`CACGTCCA` gave an E-score of -0.216.
`AAGGGGCT` has an E-score of 0.0796.
With `CAGAAAGA` the E-score was 0.133.
For `ACTTCCCC`, the E-score was -0.158.
`GGGTCCGA` has an E-score of 0.108.
`CTCGCAAC` gave an E-score of 0.186.
`ATCCCGAC` has an E-score of 0.158.
The E-score of `ACAGTAAG` is reported as -0.0716.

Further values, each from its own experiment
For `AGGGAGGGAGGGAGGGAAAAAAA (RNA; intramolecular G-quadruplex)`, binding read “binds” (G3BP1 fragment (Homo sapiens); fluorescence polarization; folded RNA; KCl 150 mM).
